Measurements pooled from the literature.
Each numbered part is a random draw from the data of one study; scales do not carry over between parts. Substitutions count along the parent as printed.

Study 1
Target: RNA binding protein fox-1 homolog 2, RRM domain, GST-SBP tag (RBFOX2, Homo sapiens, UniProt O43251-10, residues 100-194)
Technique: RNA Bind-n-Seq
Molecule type: RNA
Matrix: in vitro
Tested at: 365 nM
Notes: natural RNA segment, single round, ends assumed
Reference: no-protein control
Reading: higher = stronger binding
Residues (chain): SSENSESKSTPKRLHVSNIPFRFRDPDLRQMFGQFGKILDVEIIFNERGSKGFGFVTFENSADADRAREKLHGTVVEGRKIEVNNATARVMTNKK
Oligonucleotide	RBNS enrichment (R)
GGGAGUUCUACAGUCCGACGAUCCAUUGAUGGCAAUUUGAAUGUGGGUAUUACUCUGUGAGCCACCCUGCUUCGCUUGUUUGUAAGGAGAAAUGCAUCUGGUUAUGUGAAUUUCCCGAGAGCAGCAGACAUGGUGGAAUUCUCGGGUGCCAA	0.913
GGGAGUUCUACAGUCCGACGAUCCCAUAGCCUCCUCCCCAGGACCUGUGCUCCCAGCUUCUGCAGAGACCCCAGCAACUUUCCCUCCAAGCCUCCUUGAAGUCCGAUUCCCACCCCGCAAGUCACAGGCAUUCUGGAAUUCUCGGGUGCCAA	2.48
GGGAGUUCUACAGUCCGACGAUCGCACACAGAUCGCACCACAUGGCUUGUAAUGAUUUUCUGUGUCUGUCAUCGUCAGCGUGUCAUCUGGAUGUACGAAGGUAGUAAAAAAGGGUUUCAGAACAGAGCCACGGUGGAAUUCUCGGGUGCCAA	0.662
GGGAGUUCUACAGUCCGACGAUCAUGGAAGCUCACCUCUAAGAAAGGGCUGGGCAGAUGGAUUUAUUUUUUCCCACCUGUGAAUAUGUAAAACAAAACCAUUAUCUUUGAGGGAGUUUUUAAUACCAAUGACAUGGAAUUCUCGGGUGCCAA	0.388
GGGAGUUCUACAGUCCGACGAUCCUUAUCAAACUCAGCCCAAAACUCUGUUUACAUGGGUGGGGAGAUGGAGCAGGGAAGUACAGAGUGGGAUGGUCAGGACCUGGGCCAUUGCAACCAAAAUGGGGACUUCCUGGAAUUCUCGGGUGCCAA	0.408
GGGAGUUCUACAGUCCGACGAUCUUUUUUGAGACCAAGUCUCACUCUGUUGCCCAGGCUGGAGUGCAGUGGCACGAUCUUGGCUUACUGCAACCUCCGUCUCCCAGGUUCAAGCGAUUCUCUUGCCUCAGCCUUGGAAUUCUCGGGUGCCAA	0.312
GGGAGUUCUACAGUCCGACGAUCCCCAAGCAAAUCCUGCAUAUUCCAAAUGUAAAGAGUACUCAGUGGGAAAAAGGUUGUUACCUCAAAGUCAUUGCUUCUUUCCUGGCUGGGUCACAGGGUGAAGAGAUGAAUGGAAUUCUCGGGUGCCAA	0.34
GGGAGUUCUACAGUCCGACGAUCCGCCAUCUGGACUUCACUCAGGAGGCCUUCUAUCCCCUGUACUUGGCACUCCUCUUCUGAGGGGUUGCCCCUGUCCCUAUCUUAGGGGAGCUUGUCUCUUCCAUAGACCUUGGAAUUCUCGGGUGCCAA	0.146

Study 2
Target: CCNB3, cyclin fold, Cln2 fusion (human)
Technique: yeast growth competition, sequencing
Matrix: yeast
Notes: strong parent motif
Reference: not given
Reading: higher = stronger binding
Starting sequence: PKN2 docking peptide (human); VSAVRKLDFSDTM
Substitution	normalised enrichment score
VSAVRKLDFSDPM [T12P]	1.69
VSAVRKLDFTDTM [S10T]	1.59
VSAVIKLDFSDTM [R5I]	0.349
VKAVRKLDFSDTM [S2K]	1.13
VSAVRKLDFSKTM [D11K]	1.94
VSAVRKWDFSDTM [L7W]	-0.109
VSAVLKLDFSDTM [R5L]	0.291
VSAVRALDFSDTM [K6A]	0.268
VSAVRKLYFSDTM [D8Y]	0.652
VSAVRKLDFNDTM [S10N]	1.22
VSAVRKLDWSDTM [F9W]	0.601
VSAVRKLQFSDTM [D8Q]	1.05
VSAVRKLDFSDNM [T12N]	1.57

Study 3
Target: ABI1, truncated, D143A, DHFR fusion (Arabidopsis thaliana, UniProt P49597)
Technique: DHFR PCA, dose-response
Matrix: yeast
Notes: Hill fit, mean, not affinity
With: (+)-ABA, dose series
Reading: lower = more sensitive
Starting sequence: PYL1, truncated, DHFR fusion (Arabidopsis thaliana, UniProt Q8VZS8); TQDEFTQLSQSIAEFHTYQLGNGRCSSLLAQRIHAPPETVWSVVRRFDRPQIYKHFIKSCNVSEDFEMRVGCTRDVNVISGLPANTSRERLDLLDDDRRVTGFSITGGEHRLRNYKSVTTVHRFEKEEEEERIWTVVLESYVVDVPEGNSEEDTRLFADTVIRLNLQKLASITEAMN
Substitution	ABA EC50
I57S	484 µM
I105S	19.9 µM
A35K	160 µM
T39M	2.08 µM
R32D	15.2 µM
F66I	10 µM
F5W	3.83 µM
F56N	732 µM
R155E	89.2 µM
R24M	2.29 µM
R155H	37.8 µM
W134N	5.05 µM
E174S	9.83 µM

Study 4
Target: Centromere-binding protein 1, full length, His-tagged (CBF1, Saccharomyces cerevisiae, UniProt P17106, residues 1-351)
Sequence of UniProt P17106 (whole entry, looked up): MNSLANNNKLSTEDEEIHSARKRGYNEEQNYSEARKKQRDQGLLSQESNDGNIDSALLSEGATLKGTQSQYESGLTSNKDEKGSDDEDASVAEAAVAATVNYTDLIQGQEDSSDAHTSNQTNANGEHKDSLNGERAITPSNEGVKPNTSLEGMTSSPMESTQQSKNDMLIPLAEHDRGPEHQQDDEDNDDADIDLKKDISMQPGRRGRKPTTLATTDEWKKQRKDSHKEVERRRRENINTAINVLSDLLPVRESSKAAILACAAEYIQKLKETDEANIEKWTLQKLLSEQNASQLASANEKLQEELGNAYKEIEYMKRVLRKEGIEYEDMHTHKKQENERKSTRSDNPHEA
Technique: competition protein-binding microarray
Molecule type: double-stranded DNA, one strand shown
Matrix: in vitro
Tested at: 2 µM
Notes: whole 60-bp probe, lowest competitor level
With: Pho4 competitor, 0.05 µM
Reading: higher = stronger binding
Oligonucleotide	fluorescence intensity [a.u.]
AAAATCACTTTCCATCACGTGCCGAGGGTGGAACGCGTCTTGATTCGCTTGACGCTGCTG	3840
TAACTGGTTCAGAAACACGTTCCAACAATGGCTTGAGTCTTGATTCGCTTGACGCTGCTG	91.2
GTTTGACTACGTACGACCGTGCCAGACTTGCCGATGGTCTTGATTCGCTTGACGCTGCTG	62.9
TGCGCAACAACTTGATCAGTGGGTGTATGTCTAGAAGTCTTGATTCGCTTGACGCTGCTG	69
ACCCGGGTGCTTCGTCACGTGCAAATCAAATATGAAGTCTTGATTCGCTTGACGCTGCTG	8150
GGTTTTCGATTGGGCCTCGTGATGGAACACATCAGCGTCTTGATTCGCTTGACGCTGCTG	300
GCCAGTTTTTCGTTGCTCGTGCAAAGTGAGACGGTGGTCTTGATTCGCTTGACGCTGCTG	117
CGTCCTAGTGATTGTCACAAGACTTCCATGAGGAAGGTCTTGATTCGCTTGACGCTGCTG	144
CTTTTCCTTGTTATCCTCGTGTGTTAAATAGATAATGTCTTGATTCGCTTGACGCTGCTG	125
CTAACGAAGGTTTGGATCGTGGGTGACAAGCCAAGTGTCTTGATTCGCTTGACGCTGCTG	73.9
TTCAGCACAACCGACCACGTGAGACGAGGGTCGAAGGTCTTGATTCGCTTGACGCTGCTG	1520
TGCGCAACAACTTGCATCGTGGGTGTATGTCTAGAAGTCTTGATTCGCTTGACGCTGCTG	82.3
CACTTCACCAAACACAACGTGCTTTCCGTCCAAATGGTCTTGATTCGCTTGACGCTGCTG	139
GTCTTGTCTCATTTTCACGTGTGCTTCCCCACTTCAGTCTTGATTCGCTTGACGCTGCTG	623
CGGGGTTAAGTTTGTGGAGTGGGTGGCTTGCAGCAGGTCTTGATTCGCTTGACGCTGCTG	61.9

Study 5
Target: Sal-like protein 4, full length isoform A (SALL4, Homo sapiens, UniProt Q9UJQ4, residues 1-1053)
Sequence of UniProt Q9UJQ4 (whole entry, looked up): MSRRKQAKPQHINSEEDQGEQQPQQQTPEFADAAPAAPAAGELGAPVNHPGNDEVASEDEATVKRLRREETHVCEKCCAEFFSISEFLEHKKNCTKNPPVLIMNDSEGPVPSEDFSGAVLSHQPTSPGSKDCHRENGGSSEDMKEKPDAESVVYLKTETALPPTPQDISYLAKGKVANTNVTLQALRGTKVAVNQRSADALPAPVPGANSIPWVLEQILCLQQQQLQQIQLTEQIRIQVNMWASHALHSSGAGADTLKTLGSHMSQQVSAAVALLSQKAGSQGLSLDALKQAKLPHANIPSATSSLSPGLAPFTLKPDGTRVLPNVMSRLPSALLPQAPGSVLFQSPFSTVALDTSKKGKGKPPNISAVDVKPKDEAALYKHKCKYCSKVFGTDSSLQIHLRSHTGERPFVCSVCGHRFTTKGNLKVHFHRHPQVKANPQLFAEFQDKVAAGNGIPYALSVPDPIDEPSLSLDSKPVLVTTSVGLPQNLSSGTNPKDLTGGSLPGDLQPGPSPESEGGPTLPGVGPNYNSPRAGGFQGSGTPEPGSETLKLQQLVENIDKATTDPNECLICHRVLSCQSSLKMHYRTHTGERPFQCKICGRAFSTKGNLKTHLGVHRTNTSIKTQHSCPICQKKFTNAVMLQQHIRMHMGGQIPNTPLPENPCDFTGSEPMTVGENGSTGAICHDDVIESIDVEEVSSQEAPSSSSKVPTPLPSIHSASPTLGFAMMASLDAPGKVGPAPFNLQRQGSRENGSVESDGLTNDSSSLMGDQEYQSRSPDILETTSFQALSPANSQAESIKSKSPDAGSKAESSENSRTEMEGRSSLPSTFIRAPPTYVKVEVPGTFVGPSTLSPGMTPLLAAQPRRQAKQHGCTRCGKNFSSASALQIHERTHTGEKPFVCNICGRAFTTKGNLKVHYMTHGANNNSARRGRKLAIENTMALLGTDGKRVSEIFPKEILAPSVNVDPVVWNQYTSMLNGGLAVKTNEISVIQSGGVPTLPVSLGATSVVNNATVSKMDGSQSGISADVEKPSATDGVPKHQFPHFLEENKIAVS
Technique: universal PBM
Molecule type: double-stranded DNA, one strand shown
Matrix: in vitro
Tested at: 600 nM
Notes: 8-mer, flanks averaged, mean of replicates
Reading: higher = stronger binding
Oligonucleotide	E-score
CAATCCCG	-0.0778
GCGGTCGA	-0.157
GCTGCCCA	-0.321
ATTCTATC	0.224
ATCACGAT	0.148
TATTGTCA	0.258
ACGCGACT	-0.166
AGACCGCC	-0.197
AAGGAATC	-0.0817
ATTCGAAA	0.208
GCAGTGGC	-0.302
GCTAAACC	-0.246
ATCGTCGG	-0.103
CAATCATA	0.35
GTGGCGTA	-0.0975
GGTCAAAA	0.104
AACTCATA	0.252
CCACTTCA	-0.0652

Study 6
Target: Histone acetyltransferase KAT6A, winged helix 1, GST fusion (KAT6A, Homo sapiens, UniProt Q92794, residues 1-85)
Technique: protein binding microarray
Molecule type: double-stranded DNA, one strand shown
Matrix: in vitro
Tested at: not given
Notes: 8-mer, flanks averaged, mean of 2 arrays, mostly near background
Reference: not given
Reading: higher = stronger binding
Residues (chain): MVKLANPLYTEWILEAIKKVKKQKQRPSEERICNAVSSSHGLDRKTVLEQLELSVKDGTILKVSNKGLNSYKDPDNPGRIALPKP
Oligonucleotide	E-score
GGTTGAGA	-0.0591
AACCGACC	0.107
ACCATGTA	-0.114
ATTAAGTG	-0.159
CAGCGGAA	0.218
CGAGCATA	-0.113
GATCGCTA	0.0366
TCTGCTCA	-0.212
AATAACGA	-0.178
CGGTTTTC	0.144
CCGTTAGG	0.19
CTTATCCA	-0.229
CAGAGTCA	-0.0347

Excerpt of the above (study 5):
Oligonucleotide	E-score
ACGCGACT	-0.166
TATTGTCA	0.258
CCACTTCA	-0.0652
ATTCTATC	0.224
AAGGAATC	-0.0817
